Results of several laboratories.
Each numbered part is a random draw from the data of one study; scales do not carry over between parts.

Series 1 — method: protein-binding microarray; form: double-stranded DNA, one strand shown; sample: in vitro; concentration: not given; reading: higher = stronger binding
Target: Protein C-ets-1 (ETS1, Homo sapiens, UniProt P14921, residues 1-441, Y397A, full length assumed)
UniProt P14921, sequence (whole entry, unmodified, looked up): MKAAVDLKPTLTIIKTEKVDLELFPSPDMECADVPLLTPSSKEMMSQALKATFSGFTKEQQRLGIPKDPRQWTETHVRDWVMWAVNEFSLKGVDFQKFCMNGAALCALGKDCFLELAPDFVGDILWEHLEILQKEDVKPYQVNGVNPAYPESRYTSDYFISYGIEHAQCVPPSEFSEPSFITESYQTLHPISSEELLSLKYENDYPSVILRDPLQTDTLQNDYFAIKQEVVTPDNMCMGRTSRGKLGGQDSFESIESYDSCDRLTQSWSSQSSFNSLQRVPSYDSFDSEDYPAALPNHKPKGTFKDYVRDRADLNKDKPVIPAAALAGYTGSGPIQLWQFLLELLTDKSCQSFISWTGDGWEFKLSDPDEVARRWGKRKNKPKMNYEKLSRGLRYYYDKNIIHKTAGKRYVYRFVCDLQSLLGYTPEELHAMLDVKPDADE
Notes: k-mer, scored over probes, only values ≥0.25
`GCAATTGC` gave an E-score of 0.35.
`CGTCAAAC` gave an E-score of 0.315.
With `CTTGTCAA` the E-score was 0.255.
With `CATCCGCG` the E-score was 0.308.
`ACACGACT` gave an E-score of 0.27.
The E-score of `ATTGACAG` is reported as 0.271.
The E-score of `CCACTTCC` is reported as 0.404.
`TGTGTCAA` gave an E-score of 0.279.
With `GTCGCGAC` the E-score was 0.403.
`TATTGCAA` has an E-score of 0.251.
With `TACCGACA` the E-score was 0.318.
`TGTGACAA` gave an E-score of 0.325.
For `GTGACAAA`, the E-score was 0.409.
The E-score of `CATGTACG` is reported as 0.315.
With `CAGTTTGC` the E-score was 0.268.
`GACCGCAA` gave an E-score of 0.257.
`GGTTGCAA` has an E-score of 0.27.
`AGTTTGTC` has an E-score of 0.326.
For `TCGGAACA`, the E-score was 0.296.
With `GACAATCA` the E-score was 0.268.
`TCCGCGGA` has an E-score of 0.255.
`GCCCGCCC` gave an E-score of 0.274.
`AATGCAAA` gave an E-score of 0.261.

Series 2 — method: protein binding microarray; form: double-stranded DNA, one strand shown; sample: in vitro; concentration: not given; relative to: not given; reading: higher = stronger binding
Target: Histone acetyltransferase KAT6A, winged helix 2, GST fusion (KAT6A, Homo sapiens, UniProt Q92794, residues 85-181)
Notes: 8-mer, flanks averaged, mean of 2 arrays, mostly near background
Target sequence (chain): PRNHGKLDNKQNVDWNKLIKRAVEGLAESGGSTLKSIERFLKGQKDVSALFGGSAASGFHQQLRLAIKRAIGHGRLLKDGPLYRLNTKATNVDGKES
With `TGCAACCA` the E-score was -0.00098.
For `GCATTTAC`, the E-score was -0.0434.
`CATACTGG` gave an E-score of 0.0233.
`CCGAGCTC` gave an E-score of 0.0113.
`GCAATACA` has an E-score of 0.00364.
For `CACTCGAA`, the E-score was 0.0321.
For `AGGGCCAT`, the E-score was -0.0616.
`CCGCTAGG` gave an E-score of 0.141.
`CGTTGTAC` has an E-score of -0.143.
`CACGCTGC` has an E-score of -0.0295.
The E-score of `GCCTATGA` is reported as -0.0624.
The E-score of `ATCTTAAC` is reported as 0.0156.
The E-score of `CAACACGC` is reported as -0.157.
With `GAGTGCCA` the E-score was -0.0593.
For `ATTAGTCC`, the E-score was -0.0359.
`CCAATCAA` has an E-score of 0.0209.
With `CCGCCCAG` the E-score was 0.191.
With `ATATCCGA` the E-score was 0.0189.
`AAGCTATT` gave an E-score of -0.256.
The E-score of `CGCGATTA` is reported as 0.113.
`GCACGGAC` has an E-score of 0.0559.
`AGATGGAT` gave an E-score of -0.0101.
`GAAGTGTC` has an E-score of 0.0134.
With `AAGCCGCG` the E-score was 0.127.
With `GTACCGAA` the E-score was -0.0749.

Series 3 — method: RNA Bind-n-Seq; form: RNA; sample: in vitro; concentration: 365 nM; relative to: no-protein control; reading: higher = stronger binding
Target: RNA binding protein fox-1 homolog 2, RRM domain, GST-SBP tag (RBFOX2, Homo sapiens, UniProt O43251-10, residues 100-194)
Notes: natural RNA segment, single round, ends assumed
Residues (chain): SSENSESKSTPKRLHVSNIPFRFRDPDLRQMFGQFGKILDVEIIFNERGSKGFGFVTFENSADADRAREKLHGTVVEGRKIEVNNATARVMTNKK
`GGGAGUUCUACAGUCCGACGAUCAUGAAAACCCAACCUACAAAUACCUGGAGCAGAUGCAGAUUUAAGGACAGCGUGUGUGACACCCUGGCUGAGGCUGCUGCAGGUGGGCUGGAAGAGGCUCAGCGUUUGUGUGGAAUUCUCGGGUGCCAA`: “RBNS enrichment (R)” 0.419.
`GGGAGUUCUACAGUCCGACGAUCCUCACUUAGUAGUCUGUGGCCCUCUUUGGCACAUUAACCUCCCUCCUUGAUCCUCAGGCUGCACCUCUGGCAAAUGGGAGAAUGCGGCUCCUUUUGACUUCAAGGGAUCUUGGAAUUCUCGGGUGCCAA` — result for “RBNS enrichment (R)”: 0.452.
For `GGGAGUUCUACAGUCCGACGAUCGUUAUUGUCCUUUUACAUCUUGUUAAAUAGCCAUUGCUUUUGAGAAUCAGAUAGUGUGUUGUUUAGGGGUUAAUUGUGUCUAUAUCUUUCAAAAACUUUUAUAUUAUGUAUGGAAUUCUCGGGUGCCAA`, “RBNS enrichment (R)” read 0.41.
Under “RBNS enrichment (R)”, `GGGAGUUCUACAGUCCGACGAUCGCUUCUGUAGAUAAUGUCUGUGGAGUAAAUAUUUGACAGGCCAGAACUUGAGUCUUUUGCCUUGCCUUUAUUACAUGUAAAUUUUGAAUCUCGUGACCAGUGAUUUGGAUUGGAAUUCUCGGGUGCCAA` is recorded as 0.686.
Under “RBNS enrichment (R)”, `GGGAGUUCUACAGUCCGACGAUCCGAUACCCUCACCAGAUUUCUCAGCAGGGGUGGCCUAGGCCUGGAGCCCUCAGCCAGGGCCGUGGUGCCCACACCCAUCCCCCAGACCCAGGCCCUGACCUGCCUUUUCCUGGAAUUCUCGGGUGCCAA` is recorded as 0.35.
`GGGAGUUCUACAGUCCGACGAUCGACUCACCUUCACACGUGAGACUUCGCUCUUACCCCAGCCCCCACCGCUGGAGGGGUUUCAAUCCCCCACCCUGGGGCUCUUCUGCGCAGAAGCUGAAGUCUACGCUCCUUGGAAUUCUCGGGUGCCAA` — result for “RBNS enrichment (R)”: 0.194.
For `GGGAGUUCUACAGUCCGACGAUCACUGUAUCAUAUAACAGAAUGAUCCAGGGGAGAUUAAGCUUUGGGCAAGGGCUAUUUACCAGGGCUUAAAUGUUGUGUCUAGAAUUAAGUAUGGGCAUAAACUGGCUUCUUGGAAUUCUCGGGUGCCAA`, “RBNS enrichment (R)” read 0.324.
Under “RBNS enrichment (R)”, `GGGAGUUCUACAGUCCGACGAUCUGUGACAUCCCCUUCGACCACCAGCUGACCAUGCAUGCCACGUGGCCAGCUGAGUCCAGGACCCUCUCCAGCCCUAUCCCCAUCAAUAAAACUCUGUUUACAUCCACCGGUGGAAUUCUCGGGUGCCAA` is recorded as 3.55.

Series 4 — method: universal PBM; form: double-stranded DNA, one strand shown; sample: in vitro; concentration: not given; reading: higher = stronger binding
Target: Sal-like protein 4, full length isoform B (SALL4, Homo sapiens, UniProt Q9UJQ4-2, residues 1-616)
Notes: 8-mer, flanks averaged, mean of replicates
Target sequence (chain): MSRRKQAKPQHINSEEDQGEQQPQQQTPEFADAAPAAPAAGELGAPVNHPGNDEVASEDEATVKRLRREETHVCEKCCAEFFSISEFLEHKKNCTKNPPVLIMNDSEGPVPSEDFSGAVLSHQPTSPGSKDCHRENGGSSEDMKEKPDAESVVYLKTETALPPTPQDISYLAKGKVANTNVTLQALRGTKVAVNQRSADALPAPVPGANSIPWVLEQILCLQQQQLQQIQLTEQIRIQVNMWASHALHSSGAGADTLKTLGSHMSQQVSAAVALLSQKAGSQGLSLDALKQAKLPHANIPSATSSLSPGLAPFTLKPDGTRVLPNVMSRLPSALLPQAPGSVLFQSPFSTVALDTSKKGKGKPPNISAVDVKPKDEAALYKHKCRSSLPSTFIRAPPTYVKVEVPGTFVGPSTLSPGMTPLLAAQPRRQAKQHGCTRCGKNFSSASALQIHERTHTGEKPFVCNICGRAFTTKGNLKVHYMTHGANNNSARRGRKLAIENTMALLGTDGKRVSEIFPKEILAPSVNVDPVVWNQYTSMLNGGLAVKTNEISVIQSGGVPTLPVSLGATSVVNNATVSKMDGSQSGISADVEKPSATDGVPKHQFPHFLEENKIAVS
With `ACGTAAGC` the E-score was -0.141.
With `CCGGGGTC` the E-score was -0.388.
For `CCCGTAAG`, the E-score was -0.0929.
`ATGTATGC` has an E-score of 0.267.
With `ATCGCATC` the E-score was -0.144.
`AGCTTCCG` has an E-score of -0.25.
For `GGAGTGCA`, the E-score was -0.126.
For `AAGAAGCC`, the E-score was 0.00703.
The E-score of `CCAATAAC` is reported as 0.206.
`GCGCGGCC` gave an E-score of -0.311.
`ATGGAGTA` gave an E-score of 0.126.
The E-score of `CTAGCGAA` is reported as -0.13.
For `ACTCTCCG`, the E-score was -0.109.
`CTAAGTAC` gave an E-score of 0.131.
For `AGATGTAC`, the E-score was 0.106.
`CTCCCAAA` has an E-score of 0.042.
`ACCTGTTC` has an E-score of -0.0203.
`GAGTAAAA` gave an E-score of 0.207.
`ATTGTCCC` gave an E-score of -0.113.
`ACAATTGC` gave an E-score of 0.166.
`AGTTATCA` has an E-score of 0.281.
`AAACTGCT` has an E-score of -0.0203.
The E-score of `AGGCAAGC` is reported as -0.063.
With `GTAGCCTA` the E-score was 0.11.
The E-score of `ATCCGGCA` is reported as -0.123.

Series 5 — method: RNAcompete; form: RNA; sample: in vitro; concentration: 20 nM; notes: 7-mer, probes averaged, single round; relative to: mean of 7-mers; reading: higher = stronger binding
Target: PABPC1L2, full length, GST fusion (mouse, UniProt A0ABA7IW68)
Target sequence (chain): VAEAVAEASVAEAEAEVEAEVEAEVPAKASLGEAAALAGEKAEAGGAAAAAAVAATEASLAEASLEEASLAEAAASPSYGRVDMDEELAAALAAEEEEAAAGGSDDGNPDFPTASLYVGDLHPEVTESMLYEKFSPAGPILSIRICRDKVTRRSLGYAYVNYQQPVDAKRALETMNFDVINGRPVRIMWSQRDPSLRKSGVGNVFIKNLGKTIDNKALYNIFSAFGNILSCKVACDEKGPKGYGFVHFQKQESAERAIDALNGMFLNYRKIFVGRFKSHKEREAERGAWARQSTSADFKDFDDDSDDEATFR
`UUUGGCC` has a 7-mer Z-score of -0.358.
`CUUUGCA` gave a 7-mer Z-score of -0.338.
For `AGACGCG`, the 7-mer Z-score was -0.209.
The 7-mer Z-score of `GAUUUCA` is reported as -0.215.
For `GAGUAGU`, the 7-mer Z-score was -0.208.
`AAAAAGG` gave a 7-mer Z-score of 13.5.
The 7-mer Z-score of `CCAGUCG` is reported as -0.365.
`UAGCACC` gave a 7-mer Z-score of -0.258.
The 7-mer Z-score of `GGAUACG` is reported as 0.00979.
For `GAUAGCC`, the 7-mer Z-score was -0.18.
`ACACCCA` gave a 7-mer Z-score of -0.233.
`GGUAAAC` gave a 7-mer Z-score of 0.213.
`AUCAACA` has a 7-mer Z-score of -0.0156.
`UGCUUAA` gave a 7-mer Z-score of -0.117.
For `GUUUGAG`, the 7-mer Z-score was -0.42.
The 7-mer Z-score of `UAACGAA` is reported as 0.204.
With `ACUGUUA` the 7-mer Z-score was -0.32.
`CACCCGG` has a 7-mer Z-score of -0.159.
`CCCAGUA` has a 7-mer Z-score of -0.233.
`CGCCUAC` gave a 7-mer Z-score of -0.313.
With `GACAAUG` the 7-mer Z-score was -0.0301.
`CAUCUCC` gave a 7-mer Z-score of -0.407.
For `CUCAGCU`, the 7-mer Z-score was -0.403.
`AGGGGCA` has a 7-mer Z-score of 0.68.
The 7-mer Z-score of `ACCGGUC` is reported as -0.257.

A few entries again (series 1):
`CGTCAAAC` gave an E-score of 0.315.
With `CTTGTCAA` the E-score was 0.255.
With `CATCCGCG` the E-score was 0.308.
`ACACGACT` gave an E-score of 0.27.
The E-score of `ATTGACAG` is reported as 0.271.
The E-score of `CCACTTCC` is reported as 0.404.
`TGTGTCAA` gave an E-score of 0.279.
With `GTCGCGAC` the E-score was 0.403.
`TATTGCAA` has an E-score of 0.251.
With `TACCGACA` the E-score was 0.318.
`TGTGACAA` gave an E-score of 0.325.
For `GTGACAAA`, the E-score was 0.409.
The E-score of `CATGTACG` is reported as 0.315.
With `CAGTTTGC` the E-score was 0.268.
`GACCGCAA` gave an E-score of 0.257.
`GGTTGCAA` has an E-score of 0.27.
